# Results of several laboratories.
# Parts stem from different laboratories: compare values within a part only. Positions count from the first letter of the parent shown.

# Study 1 — target: CCNF, cyclin fold, Cln2 fusion (human); method: yeast growth competition, sequencing; sample: yeast; setting: weak parent motif; reference: not given; direction: higher = stronger binding
# Starting sequence: CDC42EP1 docking peptide (human); SLVVGKLSFDSSP; partner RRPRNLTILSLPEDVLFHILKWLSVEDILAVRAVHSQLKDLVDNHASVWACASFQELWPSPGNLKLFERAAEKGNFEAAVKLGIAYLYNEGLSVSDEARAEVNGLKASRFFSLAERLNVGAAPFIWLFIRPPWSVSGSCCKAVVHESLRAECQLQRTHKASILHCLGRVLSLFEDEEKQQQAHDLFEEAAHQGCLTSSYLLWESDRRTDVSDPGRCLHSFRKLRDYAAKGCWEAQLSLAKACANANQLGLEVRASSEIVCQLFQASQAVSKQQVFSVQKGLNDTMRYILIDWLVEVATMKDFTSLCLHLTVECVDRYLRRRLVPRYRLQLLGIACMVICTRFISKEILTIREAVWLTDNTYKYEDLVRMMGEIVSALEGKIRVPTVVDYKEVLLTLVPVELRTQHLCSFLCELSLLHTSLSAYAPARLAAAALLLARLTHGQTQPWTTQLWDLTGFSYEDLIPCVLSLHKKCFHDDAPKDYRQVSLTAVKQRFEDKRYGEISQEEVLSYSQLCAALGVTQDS
Variant,normalised enrichment score
SLVVGKLAFDSSP [S8A],-0.188
SLVVAKLSFDSSP [G5A],-0.228
SLVVGKLSFASSP [D10A],-0.141
ALVVGKLSFDSSP [S1A],0.13
SLVAGKLSFDSSP [V4A],-0.118
SAVVGKLSFDSSP [L2A],0.222

# Study 2 — method: protein binding microarray; form: double-stranded DNA, one strand shown; sample: in vitro; tested at: not given; reference: not given; direction: higher = stronger binding
# Target: Histone acetyltransferase KAT6A, winged helix 1, GST fusion (KAT6A, Homo sapiens, UniProt Q92794, residues 1-85)
# Setting: 8-mer, flanks averaged, mean of 2 arrays, mostly near background
# Target sequence (chain): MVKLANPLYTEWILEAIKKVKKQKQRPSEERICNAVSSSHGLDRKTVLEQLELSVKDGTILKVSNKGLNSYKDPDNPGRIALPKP
Oligonucleotide,E-score
CTTGCGGC,0.192
TCGGTAAA,0.00637
GCAACTCC,0.179
ATTTAGGC,-0.0713
AGACCAGC,-0.0772

# Study 3 — method: aptamer microarray, sandwich; form: DNA with 2'F-ANA; sample: in vitro; tested at: 200 nM; with: Cy3 exosite-II aptamer, 400 nM; direction: higher = stronger binding; oligonucleotide: GGTTGGTGTGGTTGG
# Target: Prothrombin, mature alpha-thrombin (F2, Homo sapiens, UniProt P00734)
# Setting: whole 15-mer aptamer, many near background
Modification,mean fluorescence intensity [a.u.]
2'F-ANA at 1 2 3 4 5 6 7 8 9 12 14,49.8
2'F-ANA at 3 6 7 12 13,1190
2'F-ANA at 3 4 9 13,483
2'F-ANA at 2 4 5 9 10 11 13 15,43.8
2'F-ANA at 4 6 7 8 13 15,213
2'F-ANA at 1 3 4 6 10 14 15,62.8
2'F-ANA at 1 4 6 8 9 12 13 15,601
2'F-ANA at 1 2 3 4 5 7 9 11,62.6
2'F-ANA at 6 7 15,492

# Other studies, line by line
Substance,target,test,test system,conditions,how to read,quantity,value
"PhoQ, residues 284 288 289 292 302 303 TASMAF","PhoP, residues 12 14 15 18 19 LHTVM (Escherichia coli, UniProt P23836)","Sort-seq, refers to: YFP reporter",E. coli,"PhoQ-PhoP variant library, with: 10 µM Mg2+","reference: high Mg2+ state, higher = stronger signaling",fold induction,14.7

# Excerpt of the above (study 1):
Variant,normalised enrichment score
SLVVAKLSFDSSP [G5A],-0.228
ALVVGKLSFDSSP [S1A],0.13
